Results collected from several papers.
Each line is one published result; not all experiments were run side by side. ± gives the spread as reported.

`Cc1ccc(OC2CCN(c3c(C#N)cnc4ccc(F)cc34)CC2)cn1`: “brain to plasma ratio” 5.25 (Sprague-Dawley rat, brain and plasma; intravenous, 0.2 mg/kg, cassette, 0.25 h).
For `CC[C@H](C)CCCCC(=O)N[C@@H](CCN)C(=O)N[C@H](C(=O)N[C@@H](CCN)C(=O)N[C@H]1CCNC(=O)[C@H]([C@@H](C)O)NC(=O)[C@H](CCN)NC(=O)[C@H](CCN)NC(=O)[C@H](CC(C)C)NC(=O)[C@@H](Cc2ccccc2)NC(=O)[C@H](CCN)NC1=O)[C@@H](C)O`, the urinary excretion was 1.53% (human, mild renal insufficiency, urine; intravenous, 0.75 mg/kg, 0-12 h, arithmetic mean).
`O=C1NCCc2nc(OCc3cccc(F)c3)ccc21`: “Irwin test score” 0 (measured: Mydriasis; Sprague-Dawley rat male; oral, 100 mg/kg, 4 h; direction not given).
For `C=CC(=O)Nc1cc(Nc2ncc(C(=O)OC(C)C)c(-c3cn(C)c4ccccc34)n2)c(OC)cc1N(C)CCN(C)C`, the intercompartmental clearance was 13 L/h (two-compartment PK model; mouse).
`COc1ccc2c(=O)n(C)c(-c3ccccc3)nc2c1` gave a tissue/plasma ratio of 39.8 (Sprague-Dawley rat, male, liver; oral, 30 mg/kg, 0.5 h; baseline: liver over plasma).
The dose-normalised Cmax of `CCCc1c(-c2ccc(O)cc2)nn(-c2ccc(O)cc2)c1-c1ccc(O)cc1` is reported as 0.07 µM per µmol/kg (female Long-Evans rats, serum; subcutaneous, 5.2 µmol/kg).
Under “treatment-emergent adverse events”, `O=C(Nc1nc2cccc(-c3ccc(CN4CCS(=O)(=O)CC4)cc3)n2n1)C1CC1` is recorded as 15% (measured: nervous system disorders; human rheumatoid arthritis patients; oral, 300 mg once daily, 4 weeks, regardless of relatedness).
`CN(CCCNC(=O)c1cccc(C(=O)O)c1)CCCNC(=O)c1cc(NC(=O)c2cc(NC(=O)c3cc(NC(=O)c4cc(NC(=O)C[C@@H](N)CNC(=O)c5cc(NC(=O)c6cc(NC(=O)c7nc(NC(=O)c8nccn8C)cn7C)cn6C)cn5C)cn4C)cn3C)cn2C)cn1C`: “critical aggregation concentration” 4 µM (dynamic light scattering; 0.1% DMSO in PBS; 25 °C).
`CCc1cc(C(=O)NC)c2nccc(N3CCc4c(cc(Cn5ccnc5)cc4-c4cn(C)nc4C(F)(F)F)C3=O)c2c1`: “brain weight change” 0.58% (Sprague Dawley rat; oral, 100 mg/kg twice daily, 7 days; baseline: vehicle).
`CC[C@H](C)[C@H](NC(=O)[C@H](CO)NC(=O)[C@H](CCCNC(=N)N)NC(C)=O)C(=O)N[C@H]1CSSC[C@@H](C(=O)N[C@H](C(N)=O)[C@@H](C)O)NC(=O)[C@H](CCCNC(=N)N)NC(=O)[C@H](Cc2c[nH]cn2)NC(=O)[C@H](C)NC(=O)CNC(=O)[C@H](Cc2c[nH]c3ccccc23)NC(=O)[C@H](CC(=O)O)NC(=O)[C@H](CCC(N)=O)NC(=O)[C@H](Cc2cccc3ccccc23)NC(=O)[C@H](C(C)C)NC1=O` gave a retention factor of 1.17 ± 0.006 (isocratic RP-HPLC, C18; 32% acetonitrile, phosphate pH 7.4, 1% TFA; 25 °C).
For `O=C1CN(c2nc(=O)c3cc(C(F)(F)F)cc([N+](=O)[O-])c3s2)CCN1C1CCCC1`, the fraction unbound was 0.093 (equilibrium dialysis; human plasma; 1 µM, 18 h, pH 7.4).
With `CN(C(=O)n1cnc(-c2cccnc2)c1)C1CCCCC1` the concentration was 9.7 ± 0.1 ng/g (Wistar rat, hippocampus; oral, 10 mg/kg of BIA 10-2474, 24 h, single dose).
For `COc1ccc2[nH]c([S+]([O-])Cc3ncc(C)c(OC)c3C)nc2c1` (centres unmarked), the AUC(0-inf) was 233 ng·h/mL (healthy Chinese volunteers, plasma; oral, 20 mg, fasted, CYP2C19 rapid metabolizers).
Under “trough plasma concentration”, `O=C1Nc2ccc(Cl)cc2[C@@](C#CC2CC2)(C(F)(F)F)O1` is recorded as 2460 ng/mL (human, plasma; oral, 600 mg, day 28, median).
`CN(CC#N)C(=O)C[C@H](Nc1nc2ccccc2[nH]1)c1cccc(C(F)(F)F)c1` has a terminal half-life of 4.01 ± 0.16 h (human; intravenous infusion, 5 mg/kg, 1 mg/mL formulation).
For `CC[C@H](C)[C@H](NC(=O)[C@H](CO)NC(=O)[C@H](CCCNC(=N)N)NC(C)=O)C(=O)N[C@H]1CSSC[C@@H](C(=O)N[C@H](C(N)=O)[C@@H](C)O)NC(=O)[C@H](CCCNC(=N)N)NC(=O)[C@H](Cc2c[nH]cn2)NC(=O)[C@H](C)NC(=O)CNC(=O)[C@H](Cc2c[nH]c3ccccc23)NC(=O)[C@H](CC(=O)O)NC(=O)[C@H](CCC(N)=O)NC(=O)[C@H](Cc2ccc(O)cc2)NC(=O)[C@H](C(C)C)NC1=O`, the retention factor was 0.477 ± 0.02 (RP-HPLC, C18; 28% acetonitrile isocratic; pH 7.4).
`COc1c(N2C[C@@H]3CCCN[C@@H]3C2)c(F)cc2c(=O)c(C(=O)O)cn(C3CC3)c12`: “QTcI change from baseline” -5.9 ms (healthy volunteers; oral, 400 mg single dose, day 5, 0.00 h).
Under “steady-state plasma concentration”, `CCOCc1nc(O)c(-c2nnc(Cc3ccc(Cl)cn3)o2)c(O)c1-c1c(OC)cccc1OC` is recorded as 2690 nM (rat, plasma; subcutaneous infusion, 3 mg/kg/day, day 7 after surgery).
`COc1ccc2c(c1)CN(C(=O)CCN1CCC(Cc3ccccc3)CC1)CC[S@@+]2[O-]` — result for “diastolic blood pressure”: 77 ± 7 mmHg (telemetry; conscious dog; intravenous, 2 mg/kg, 4 h).
For `C=CC(=O)Nc1cc(Nc2nccc(-c3cn(C)c4ccccc34)n2)c(OC)cc1N(C)CCN(C)C`, the recovery was 101% (storage stability; human plasma; 2 h, -80 °C, MQC level).
Under “mean corpuscular volume”, `CCCCCNC(=O)N1CCC(CN(Cc2ccc(Cl)cc2)Cc2ccc([N+](=O)[O-])s2)C1` (centres unmarked) is recorded as 41.5 ± 0.4 fL (complete blood count; C57BL/6 mice, blood; 100 mg/kg twice daily, 7 days).
`Cl.[2H]C([2H])([2H])CC(=O)c1cnc(NC(=O)C2CC2)cc1Nc1cccc(-c2ncn(C([2H])([2H])[2H])n2)c1OC` has a Vz/F of 154 L (geometric mean; human; oral, 20 mg once daily, day 7, fasted, liquid, multiple dose).
Under “subjects with any TEAE”, `O=C(O)CCC(=O)O.[2H]C([2H])([2H])Oc1cc(C)c2[nH]ccc2c1CN1CC[C@@H](C2CC2)C[C@H]1c1ccc(C(=O)O)cc1` is recorded as 75% (multiple ascending dose; healthy Chinese subjects; 50 mg twice daily).
For `CCN1CCN(Cc2ccc(Nc3ncc(F)c(-c4cc(F)c5nc6n(c5c4)[C@H](C)CCC6)n3)nc2)CC1`, the Tmax was 5.95 h (human, plasma; 200 mg single dose, median).
`N[C@@H]1c2ccccc2OC12CCN(c1cnc3c(N4CCCc5ncccc54)n[nH]c3n1)CC2` gave an AUC(0-tau) of 2740 ng·h/mL (advanced metastatic solid tumour patients, plasma; oral, 40 mg once daily, cycle 1 day 1, geometric mean).
The clearance of `Cc1ccc(N(c2ccc(NC(=O)CN(C)c3ccccc3N3CCCC3=O)cc2)C(C)C)cc1` is reported as 125 mL/min/kg (male CD1 mice, plasma; oral, 20 mg/kg).
`CCCCC[C@H]1CC[C@H](c2ccc(OCC)c(F)c2F)CC1` gave a fetal accumulation of 1.57 ± 1.11 ng/g (rat, fetus; 5000 ng/mL in perfusate, high dose, mixture of 21 LCMs).
Under “participants with TEAE”, `Cc1ccc(Sc2ccccc2N2CCNCC2)c(C)c1` is recorded as 0% (measured: blood uric acid increased; healthy adult men; oral, 10 mg daily, 12 days).
`Cc1cn(-c2cc(NC(=O)c3ccc(C)c(Nc4nccc(-c5cccnc5)n4)c3)cc(C(F)(F)F)c2)cn1`: “central volume of distribution (V1)” 556 L (population PK model, bootstrap; human, both sexes, plasma; oral, dose not given).
For `CC(C)(C(=O)N1CCOc2c(C#N)cncc2C1)C(F)F`, “subjects with contact dermatitis TEAE” read 16.7% (human, both sexes; oral, 40 mg single dose).
With `CCCc1ccc(-c2ccc(-c3cc(F)c(F)c(F)c3)c(F)c2)cc1` the fetal accumulation was 0.53 ± 0.458 ng/g (rat, fetus; 5000 ng/mL in perfusate, high dose, mixture of 21 LCMs).
For `CCO[C@H]1CCN(Cc2c(OC)cc(C)c3[nH]ccc23)[C@H](c2ccc(C(=O)O)cc2)C1`, the total AUC(0-t) was 52200 ng·h/mL (human mild hepatic impairment, plasma; oral, 200 mg single dose, geometric mean).
For `COc1nnc2ccc(N3CCC(c4ccc(OCCN5CCN(C)C(=O)[C@H]5C)cc4)CC3)nn12`, the terminal half-life was 1.8 to 5.4 h (human, plasma; oral, dose not given, single dose, monotherapy, across dose cohorts).
For `C[C@@H]1OC(=O)[C@H](Cc2ccccc2)[C@H]1O`, “share of total radioactive residue” read 32.2 % TRR (laying hens, eggs; oral, 10.7 mg/kg dry feed, 7 d).
`Cn1cc(Nc2nccc(-c3ccc4c(c3)CN(C3COC3)CC[C@H]4NC(=O)c3cn(C(C)(C)C)nn3)n2)cn1` — result for “percent change from baseline”: 6.1% (measured: naive B cell count; human, clinical trial, whole blood; 50 mg twice daily, follow-up).
For `c1cc(CN2CCOCC2)cc(Nc2ncc(C3CC3)c(NCCc3c[nH]cn3)n2)c1`, the effective permeability was 0.561 ×10⁻⁶ cm/s (PAMPA; PBS; 5 h, pH 7.4).
For `Nc1nc2c(nc([N+](=O)[O-])n2[C@@H]2O[C@H](CO)[C@@H](O)[C@H]2O)c(=O)[nH]1`, the depurination half-life was 15.1 h (citrate phosphate buffer; 0.5 mM, pH 5.00, 37 °C).
For `C=CC(=O)N(C)CCOc1c(N)ncnc1-c1cc(F)cc(NC(=O)c2ccc(C3CC3)cc2F)c1C`, “AUC(0-inf) per dose” read 4.85 ng·h/mL/mg (human; oral, 50 mg, day 3, geometric mean, given alone).
Under “adverse event incidence”, `Cc1c(C(=O)O)ccc2c3n(nc12)[C@@H]1[C@H](C3)N(CC2CC2)[C@@]2(C(=O)Nc3cc(Cl)ccc32)[C@H]1c1cccc(Cl)c1F` is recorded as 1.9% (phase Ia trial, measured: Fatigue; cancer patients; oral, dose not given, all patients grade ≥3).
`C=CCN1CC(=O)N2[C@@H](Cc3ccc(O)cc3F)C(=O)N(Cc3cccc(N4CC(N5CCN(CC)CC5)C4)n3)C[C@@H]2N1C(=O)NCc1ccccc1`: “treatment-related adverse events” 20% (measured: Diarrhea; advanced solid tumour patients; oral, 120 mg twice daily, expansion part, any grade).
`Cc1ccc(C(=O)N(CCCN)C(c2nc3snc(C)c3c(=O)n2Cc2ccccc2)C(C)C)cc1` (centres unmarked): “patients with adverse events” 5% (measured: Dysphagia; human patients; intravenous, dose not given, CTCAE grade ≥3, all doses).
`Cn1cnc2c(F)c(Nc3ccc(Br)cc3Cl)c(C(=O)NOCCO)cc21` — result for “central volume of distribution”: 36.9 L (human, plasma; oral, dose not given, first-order absorption).
`C=CC[C@@H]1/C=C(\C)C[C@H](C)C[C@H](OC)[C@H]2O[C@@](O)(C(=O)C(=O)N3CCCC[C@H]3C(=O)O[C@H](/C(C)=C/[C@@H]3CC[C@@H](O)[C@H](OC)C3)[C@H](C)[C@@H](O)CC1=O)[C@H](C)C[C@@H]2OC` — result for “plasma urea level”: 6.2 ± 0.8 mmol/L (Wistar Kyoto rat, male, plasma; ip, 0.5 mg/kg/day, day 18).
`O=C(c1cccnc1-c1ccncc1)N1CCC(O)(Cc2ccccc2)CC1` gave a Vz/F of 4100 L (healthy Japanese adults, plasma; oral, 100 mg twice daily, day 1).
`CC(C)n1c(Nc2cccnc2)nc2cnc(Nc3ccc(N4CCN(C)CC4)cc3)nc21` — result for “subjects with TEAE”: 2.4% (measured: gum pain; healthy human, male; oral, dose not given, CTCAE grade 1-3).
`CCN1/C(=C/C(C)=O)Sc2ccc(F)cc21` — result for “QTc interval change”: 100 ± 3.1% (cynomolgus monkey; oral, 100 mg/kg, 6 h post-dose; baseline: pre-dose).
For `COc1cc2c3c(n(CCCNCCO)c(=O)c2cc1OC)-c1nc2c(cc1C3=O)OCO2`, the dose-normalized AUC(0-t) was 151 ng·h/mL (male CD1 mouse, plasma; intravenous, 1 mg/kg).
`CCCCCN1C[C@H](O)[C@@H](O)[C@H](O)[C@@H]1CO`: “mean brain concentration” 37 ng/g (LC-MS/MS; Hexb-/- mice, male, brain; 30 mg/kg/day).
`CC[C@H](C)[C@H](NC(=O)CN)C(=O)N[C@@H](CCCCN)C(=O)N[C@@H](CCCCN)C(=O)N[C@@H](Cc1ccccc1)C(=O)N[C@@H](CC(C)C)C(=O)N[C@@H](CCCCN)C(=O)N[C@@H](CO)C(=O)N[C@@H](C)C(=O)N[C@@H](CCCCN)C(=O)N[C@@H](CCCCN)C(=O)N[C@@]1(C)CCCC=CCCC[C@@](C)(C(=O)N[C@@H](CCCCN)C(N)=O)NC(=O)[C@H](C)NC(=O)[C@H](CCCCN)NC(=O)[C@H](C(C)C)NC1=O` has a retention time of 2.09 min (UPLC; TFA water/acetonitrile gradient; longer = more hydrophobic).
For `Cc1ccc([C@@H]2O[C@H](CO)[C@@H](O)[C@H](O)[C@H]2O)cc1Cc1ccc(-c2ccc(F)cc2)s1`, “urinary phosphate excretion change” read 36.1 mg (measured: inorganic phosphorus; Japanese type 2 diabetes patients; 400 mg, day 16, 24 h urine collection; baseline: baseline).

Excerpt of the above:
For `COc1cc2c3c(n(CCCNCCO)c(=O)c2cc1OC)-c1nc2c(cc1C3=O)OCO2`, the dose-normalized AUC(0-t) was 151 ng·h/mL (male CD1 mouse, plasma; intravenous, 1 mg/kg).
`C=CC[C@@H]1/C=C(\C)C[C@H](C)C[C@H](OC)[C@H]2O[C@@](O)(C(=O)C(=O)N3CCCC[C@H]3C(=O)O[C@H](/C(C)=C/[C@@H]3CC[C@@H](O)[C@H](OC)C3)[C@H](C)[C@@H](O)CC1=O)[C@H](C)C[C@@H]2OC` — result for “plasma urea level”: 6.2 ± 0.8 mmol/L (Wistar Kyoto rat, male, plasma; ip, 0.5 mg/kg/day, day 18).
Under “subjects with any TEAE”, `O=C(O)CCC(=O)O.[2H]C([2H])([2H])Oc1cc(C)c2[nH]ccc2c1CN1CC[C@@H](C2CC2)C[C@H]1c1ccc(C(=O)O)cc1` is recorded as 75% (multiple ascending dose; healthy Chinese subjects; 50 mg twice daily).
